# Measurements gathered from unrelated publications.
# Amino acid sequences for entries named in this document (tags omitted).
# UniProt P41145, whole entry: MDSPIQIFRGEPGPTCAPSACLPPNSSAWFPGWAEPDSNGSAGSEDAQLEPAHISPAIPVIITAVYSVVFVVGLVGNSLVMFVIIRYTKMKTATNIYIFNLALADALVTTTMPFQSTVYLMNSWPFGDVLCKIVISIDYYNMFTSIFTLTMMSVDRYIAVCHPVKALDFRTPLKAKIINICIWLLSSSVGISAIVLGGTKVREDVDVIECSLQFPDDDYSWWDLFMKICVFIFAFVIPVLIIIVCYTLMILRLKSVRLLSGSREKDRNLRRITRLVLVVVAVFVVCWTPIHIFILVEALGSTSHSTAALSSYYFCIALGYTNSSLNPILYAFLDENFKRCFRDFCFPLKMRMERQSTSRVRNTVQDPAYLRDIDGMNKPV
# UniProt Q62645, whole entry, looked up: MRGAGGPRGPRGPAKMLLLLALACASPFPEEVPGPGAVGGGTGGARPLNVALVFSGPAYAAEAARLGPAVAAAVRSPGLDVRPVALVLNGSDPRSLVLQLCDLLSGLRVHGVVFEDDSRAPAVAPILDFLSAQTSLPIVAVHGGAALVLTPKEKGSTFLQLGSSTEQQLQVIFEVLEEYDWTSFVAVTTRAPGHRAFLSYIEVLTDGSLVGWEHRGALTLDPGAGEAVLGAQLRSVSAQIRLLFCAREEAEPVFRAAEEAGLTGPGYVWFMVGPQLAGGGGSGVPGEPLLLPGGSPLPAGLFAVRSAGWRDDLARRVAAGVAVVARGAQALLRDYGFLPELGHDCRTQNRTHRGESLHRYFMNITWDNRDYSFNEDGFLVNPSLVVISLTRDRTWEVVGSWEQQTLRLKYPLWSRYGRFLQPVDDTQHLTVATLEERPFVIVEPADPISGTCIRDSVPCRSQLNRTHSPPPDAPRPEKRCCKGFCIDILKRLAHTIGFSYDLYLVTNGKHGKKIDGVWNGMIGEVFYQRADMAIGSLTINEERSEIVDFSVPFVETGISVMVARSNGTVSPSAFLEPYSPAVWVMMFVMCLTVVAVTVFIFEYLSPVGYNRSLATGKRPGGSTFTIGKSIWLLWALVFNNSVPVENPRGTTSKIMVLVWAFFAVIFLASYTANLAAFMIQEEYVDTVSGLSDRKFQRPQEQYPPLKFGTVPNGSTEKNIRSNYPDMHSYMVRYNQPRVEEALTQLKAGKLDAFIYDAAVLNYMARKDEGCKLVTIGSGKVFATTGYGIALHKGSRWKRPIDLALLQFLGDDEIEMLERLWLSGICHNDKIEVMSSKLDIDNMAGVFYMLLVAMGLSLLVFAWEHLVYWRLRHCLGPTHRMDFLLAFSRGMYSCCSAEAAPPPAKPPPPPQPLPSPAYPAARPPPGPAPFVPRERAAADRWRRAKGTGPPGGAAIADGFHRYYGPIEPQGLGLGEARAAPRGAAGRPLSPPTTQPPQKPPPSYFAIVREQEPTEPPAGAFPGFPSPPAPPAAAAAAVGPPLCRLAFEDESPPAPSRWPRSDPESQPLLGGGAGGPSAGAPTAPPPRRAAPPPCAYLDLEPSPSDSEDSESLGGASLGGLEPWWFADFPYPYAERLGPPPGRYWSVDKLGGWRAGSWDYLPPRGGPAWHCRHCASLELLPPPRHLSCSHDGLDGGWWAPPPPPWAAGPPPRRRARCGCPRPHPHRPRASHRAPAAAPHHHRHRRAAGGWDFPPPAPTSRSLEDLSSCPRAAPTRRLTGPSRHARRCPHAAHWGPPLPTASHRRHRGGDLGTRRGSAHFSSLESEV
# UniProt P67660, whole entry L212A, looked up: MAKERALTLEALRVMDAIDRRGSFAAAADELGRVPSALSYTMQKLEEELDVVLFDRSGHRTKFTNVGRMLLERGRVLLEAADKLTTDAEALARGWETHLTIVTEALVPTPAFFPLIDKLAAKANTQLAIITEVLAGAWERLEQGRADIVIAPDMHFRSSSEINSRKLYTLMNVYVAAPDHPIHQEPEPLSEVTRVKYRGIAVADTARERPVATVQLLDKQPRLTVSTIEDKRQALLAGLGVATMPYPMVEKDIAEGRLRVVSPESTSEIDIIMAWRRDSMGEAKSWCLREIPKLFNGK
# UniProt P0C0H6, whole entry: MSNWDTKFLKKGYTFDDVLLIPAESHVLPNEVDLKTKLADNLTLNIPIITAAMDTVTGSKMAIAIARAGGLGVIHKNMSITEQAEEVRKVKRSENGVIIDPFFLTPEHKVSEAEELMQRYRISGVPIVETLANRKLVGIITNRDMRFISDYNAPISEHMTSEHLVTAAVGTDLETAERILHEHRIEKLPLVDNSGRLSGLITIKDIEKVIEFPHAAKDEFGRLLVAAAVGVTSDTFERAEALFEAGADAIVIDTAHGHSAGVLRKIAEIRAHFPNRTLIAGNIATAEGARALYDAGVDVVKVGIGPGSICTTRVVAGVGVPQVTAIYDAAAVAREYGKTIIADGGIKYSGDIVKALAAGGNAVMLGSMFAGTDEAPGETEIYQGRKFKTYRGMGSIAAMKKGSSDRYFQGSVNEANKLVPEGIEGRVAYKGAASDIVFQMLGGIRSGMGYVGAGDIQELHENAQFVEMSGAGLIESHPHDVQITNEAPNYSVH
# UniProt P33534, whole entry: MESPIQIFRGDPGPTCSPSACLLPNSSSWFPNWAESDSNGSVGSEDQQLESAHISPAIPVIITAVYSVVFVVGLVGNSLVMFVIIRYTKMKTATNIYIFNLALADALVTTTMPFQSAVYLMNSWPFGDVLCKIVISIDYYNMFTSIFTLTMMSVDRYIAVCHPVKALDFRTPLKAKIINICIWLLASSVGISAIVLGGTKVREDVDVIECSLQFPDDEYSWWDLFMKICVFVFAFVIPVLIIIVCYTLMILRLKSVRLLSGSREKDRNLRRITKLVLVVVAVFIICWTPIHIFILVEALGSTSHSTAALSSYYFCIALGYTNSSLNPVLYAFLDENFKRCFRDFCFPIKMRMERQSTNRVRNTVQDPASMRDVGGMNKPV
# UniProt P11712, whole entry: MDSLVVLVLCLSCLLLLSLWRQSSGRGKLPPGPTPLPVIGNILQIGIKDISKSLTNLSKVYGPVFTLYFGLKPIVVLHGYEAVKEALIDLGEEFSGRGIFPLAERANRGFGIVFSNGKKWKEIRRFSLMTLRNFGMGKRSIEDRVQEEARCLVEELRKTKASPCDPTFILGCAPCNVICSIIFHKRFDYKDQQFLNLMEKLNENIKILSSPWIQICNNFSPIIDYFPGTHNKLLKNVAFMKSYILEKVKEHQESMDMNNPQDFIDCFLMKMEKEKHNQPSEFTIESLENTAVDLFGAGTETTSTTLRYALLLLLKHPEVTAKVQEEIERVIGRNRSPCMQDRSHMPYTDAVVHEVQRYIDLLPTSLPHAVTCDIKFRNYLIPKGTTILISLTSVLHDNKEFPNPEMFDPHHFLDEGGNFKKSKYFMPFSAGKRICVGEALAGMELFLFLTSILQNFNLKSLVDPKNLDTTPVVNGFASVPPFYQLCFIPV
# UniProt P35372, whole entry: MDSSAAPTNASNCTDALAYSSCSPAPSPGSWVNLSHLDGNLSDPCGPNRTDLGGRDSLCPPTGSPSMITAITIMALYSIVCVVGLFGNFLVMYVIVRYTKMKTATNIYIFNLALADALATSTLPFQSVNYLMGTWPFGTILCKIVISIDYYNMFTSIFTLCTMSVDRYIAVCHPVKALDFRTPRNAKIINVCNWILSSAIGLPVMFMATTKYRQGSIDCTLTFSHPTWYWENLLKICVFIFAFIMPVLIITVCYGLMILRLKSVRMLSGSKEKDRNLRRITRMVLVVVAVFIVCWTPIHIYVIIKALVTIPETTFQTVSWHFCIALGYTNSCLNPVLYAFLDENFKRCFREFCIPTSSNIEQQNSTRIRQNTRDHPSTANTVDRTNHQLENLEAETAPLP
# Numbers after ± are the reported error.
Structure (SMILES),target or system,assay,test system,conditions,scale,endpoint,value
COCCOc1ccc2nc3ccc(=O)cc-3oc2c1,Mycobacterium tuberculosis,,mc2 6206 clofazimine-resistant fbiC mutant,7 days,,MIC90,19 µM
C[C@H]1CCCN1Cc1cc2cnc(NC(=O)c3ccc4c(cnn4C)c3)cc2[nH]1,,,"MV4;11 cells, NSG mouse, disseminated xenograft","oral, 200 mg/kg once daily, 28 days",reference: control,median survival increase,70%
CCN(CC)C(=O)Oc1ccc(C(=O)Nc2cccc3cc[nH]c23)cc1,rat GluN1/GluN2C diheteromeric NMDA receptor,"inhibitor, two-electrode voltage clamp",Xenopus oocytes,,,IC50,5.1 µM
CCCCOc1ccc2nc3ccc(=O)cc-3oc2c1,Mycobacterium tuberculosis,,mc2 6206 bedaquiline-resistant MmpL5 regulator mutant,7 days,,MIC90,7 µM
c1ccc(Nc2cccc3ccccc23)cc1,Manis javanica OBP3 Y81A,"binding, fluorescence binding",,together with: 1-NPN probe,,Kd,1.46 ± 0.38 µM
O=C(N/N=C/c1cc([N+](=O)[O-])ccc1O)c1ccc(O)cc1O,PHGDH-amplified breast cancer,"cell viability, MTT",,serine-replete medium,,EC50,< 10 µM
O=c1ccc2nc3ccc(OCc4ccc([N+](=O)[O-])cc4)cc3oc-2c1,Mycobacterium tuberculosis,,mc2 6206 clofazimine-resistant fbiC mutant,7 days,,MIC90,> 256 µM
CC1CCC2(CC1)OOCN(CCCCCCCCCCN1COOC3(CCC(C)CC3)OOC3(CCC(C)CC3)OOC1)COOC1(CCC(C)CC1)OO2 (stereo not shown),Jurkat,"cytotoxicity, 7-AAD flow cytometry",,,,IC50,3.12 ± 0.25 µM
COc1cc(OC)c2ccccc2c1C=C1C(=O)NC(=S)NC1=O,"Ly19, SU-DHL-8, TMD8",,,"4 µM, 24 h",,reduced glutathione level,decreased
Cc1cc(N(CCCl)CCCl)ccc1C=O,CAKI-1,"cell growth, inhibitor, MTT",,,,IC50,1.3 µg/mL
O=c1ccc2nc3ccc(OCc4ccc([N+](=O)[O-])o4)cc3oc-2c1I,Mycobacterium tuberculosis,,mc2 6206 PA-824-resistant ddn mutant,7 days,,MIC90,> 256 µM
CCCCCCC1c2ccc(O)cc2Oc2cc(O)ccc21,Acinetobacter baumannii,,ATCC 9955,no additive,,MIC,> 373 µg/mL
CCOC(=O)OCOc1c(-c2ccc(Oc3ccc(OC(F)(F)F)cc3)cc2)c(C)nc2cc(OC)c(Cl)cc12,Plasmodium berghei,causal prophylaxis,C57BL/6 albino mice,"oral, single dose 24 h pre-infection",,minimum curative dose,1 mg/kg
CC[C@@](O)(c1ccccc1)[C@H]1C[C@@]23CC[C@]1(OC)[C@@H]1Oc4c(O)ccc5c4[C@@]12CCN(CC1CC1)[C@@H]3C5,"Kappa-type opioid receptor (OPRK1, Homo sapiens, UniProt P41145)","binding, radioligand displacement",CHO,together with: [3H]U-69593,,Ki,0.00036 ± 4e-05 µM
CCOc1ccc2cc(-c3nn(CC4CCN(C)CC4)c4ncnc(N)c34)ccc2n1,other kinases in panel,"kinase activity, inhibitor",,,,IC50,> 10 µM
CC[C@H](C)[C@@H]1NC(=O)[C@H](CCC(=O)O)NC(=O)[C@@H]2CCCN2C(=O)[C@H](Cc2c[nH]cn2)NC(=O)[C@H](CC(=O)O)NC(=O)[C@H](Cc2ccc(O)cc2)NC(=O)[C@H](CC(N)=O)NC(=O)[C@@H]2CSSC[C@@H]3NC(=O)CNC(=O)CNC(=O)CNC(=O)[C@H](C)NC(=O)[C@H](C)NC(=O)CNC(=O)CNC(=O)[C@H](CSSC[C@H](NC3=O)C(=O)N[C@@H](CO)C(=O)N[C@@H](CC(=O)O)C(=O)N3CCC[C@H]3C(=O)N[C@@H](CCCNC(=N)N)C(=O)N2)NC1=O,,"barium current, inhibitor, electrophysiology",,"0.2 µM, Cav2.3d Y1761F mutant",,inhibition,1.7 ± 0.3%
CC#C/C(=N\OC[C@H]1COCCN1)c1ccc2ncnc(Nc3ccc(OCc4cccc(F)c4)c(Cl)c3)c2c1,BT-474,"cell growth, WST-8",,72 h,,IC50,0.0099 ± 0.0008 µM
Cc1ccc(S(=O)(=O)N(C)CC(=O)N(Cc2ccc(C3CCCCC3)cc2)c2ccc(C(=O)O)c(O)c2)cc1,A2780S,"cell viability, CyQuant",,,,IC50,> 100 µM
CCCCCCCCCCCCCC(=S)NCCCC[C@H](NC(=O)OCc1ccccc1)C(=O)Nc1cccc(O)c1,AsPC-1,cell growth,,,,GI50,8.6 ± 0.9 µM
CCCN1CCN(c2ccc3c(c2)C2CC3CCN2C(=O)OCc2ccccc2)CC1 (stereo not shown),"benzodiazepine site, rat",radioligand binding,rat brain,,,Ki,4.77 µM
Cc1cc(C(=O)O)ccc1-c1c2ccc(=O)cc-2oc2cc(OCc3ccc([N+](=O)[O-])o3)ccc12,Mycobacterium tuberculosis,,mc2 6206 clofazimine-resistant fbiC mutant,7 days,,MIC90,242 µM
O=C1C=C(NCCc2cc(Br)c(O)c(Br)c2)C(=O)c2ncccc21,,,"SCID/Beige mice, MNNG-HOS lung metastasis",dose not given,,median survival,48.5 days
COc1ccc(OC[C@H]2c3cccn3CC(=O)N2Cc2cccc(F)c2)cc1,"Glutamate receptor ionotropic, NMDA 2D, with GluN1 (Rattus norvegicus, UniProt Q62645)","ion current, whole-cell patch clamp","HEK293T cells, transfected","10 µM, holding -70 mV, together with: 1 mM glutamate for 10 ms plus 100 µM glycine",,peak current,-275 ± 137 pA
Cc1ccc(-c2csc(N(CC3OC(n4c[n+](Cc5ccccc5)c5c(=O)[nH]c(NC(=O)c6ccccc6)nc54)C4OC(C)(C)OC34)P(=O)([O-])O)n2)cc1 (stereo not shown),Caco-2,"cell growth, SRB",,,,IC50,> 100 µM
CC(C)Cc1nnc2c(C(=O)NC3c4ccccc4-c4ccccc43)cccn12,Escherichia coli,broth microdilution,MB5746 rpoZ deletion,,reference: mutant over wild type,MIC ratio,> 32
CO[C@]12CC[C@@]3(C[C@@H]1[C@](C)(O)C(C)(C)C)[C@H]1Cc4ccc(O)c5c4[C@@]3(CCN1CC1CC1)[C@H]2O5,,"antagonist, tail-flick test",mice,together with: morphine,,AD50,1 mg/kg
COCCOc1ccc2nc3ccc(=O)c(Cl)c-3oc2c1,Mycobacterium tuberculosis,,mc2 6206 bedaquiline-resistant MmpL5 regulator mutant,7 days,,MIC90,> 256 µM
Cc1cc(O)ccc1O,"Probable HTH-type transcriptional regulator YhaJ, effector-binding domain (yhaJ, Escherichia coli, UniProt P67660, L212A)",microscale thermophoresis,,pH 7.5,,Kd,9000 ± 3700 µM
O=C(Cn1c(-c2ccccn2)nc2ccccc21)Nc1ccc2ccccc2c1,"Inosine-5'-monophosphate dehydrogenase (Streptococcus pyogenes, UniProt P0C0H6)","enzyme activity, inhibitor",,corrected for open conformation,,IC50,0.0007 µM
C(CCCCCN1COOC2(CCCC2)OOC2(CCCC2)OOC1)CCCCN1COOC2(CCCC2)OOC2(CCCC2)OOC1,Jurkat,"cytotoxicity, 7-AAD flow cytometry",,,,IC50,3.24 ± 0.24 µM
Nc1ccc2nc3ccc(=O)cc-3oc2c1,Mycobacterium tuberculosis,,mc2 6206 clofazimine-resistant fbiC mutant,7 days,,MIC90,5.3 µM
CC1(C)CCC(Cc2cc(O)c(-c3ccccc3)c(=O)[nH]2)CC1,Mycobacterium tuberculosis,,inhA D148G resistant mutant,,,MIC50,0.38 µM
Cc1c(N2CC[C@@H](CN)C2)c(F)cc2c(=O)n(N)c(=O)n(C3CC3)c12,Staphylococcus aureus topoisomerase IV GrlA S81F,DNA cleavage,,,,CC3,0.3 µM
O=c1ccc2nc3ccc(OCc4ccccc4)cc3oc-2c1I,Mycobacterium tuberculosis,,mc2 6206 clofazimine-resistant fbiC mutant,7 days,,MIC90,242 µM
C(CCCCCN1COOC2(CCCCCC2)OOC2(CCCCCC2)OOC1)CCCCN1COOC2(CCCCCC2)OOC2(CCCCCC2)OOC1,U-937,"cytotoxicity, 7-AAD flow cytometry",,,,IC50,1.41 ± 0.13 µM
CN(C(=O)Cc1ccc(Cl)c(Cl)c1)[C@H](CN1CCCC1)c1ccccc1,"Kappa-type opioid receptor (Oprk1, Mus musculus, UniProt P33534)","G protein activation, agonist",,concentration not given,reference: dynorphin A,log intrinsic relative activity,0.75 ± 0.08
CO[C@H]1/C=C/O[C@@]2(C)Oc3c(C)c(O)c4c(O)c(c(/C=N/N5CCN(C)CC5)c(O)c4c3C2=O)NC(=O)/C(C)=C\C=C\[C@H](C)[C@H](O)[C@@H](C)[C@@H](O)[C@@H](C)[C@H](OC(C)=O)[C@@H]1C,Mycobacterium bovis,,"BCG Tac^r9.1, thyA mutant",TA-C-resistant thyA mutant,,MIC50,0.0016 µM
O=C(C1CC1)N1CC2CC(C1)N2,,limb use asymmetry test,"rat, 6-OHDA lesion","dose not given, 60 min after L-dopa, 5 min test period, together with: L-dopa",,contralateral forelimb use,51.3 ± 16.5%
CCC(C)C1NC(=O)/C(=C(/C)O)C1=O (stereo not shown),plasma membrane H+-ATPase (Spinacia oleracea),"ATP hydrolysis, measured: ATP",plasma membrane fraction,1.0 µM,,Km,2560 µM
CO[C@]12CC[C@@]3(C[C@@H]1C(C)(C)O)[C@H]1Cc4ccc(O)c5c4[C@@]3(CCN1CC1CC1)[C@H]2O5,"Cytochrome P450 2C9 (CYP2C9, Homo sapiens, UniProt P11712)",,human liver microsomes,10 µM,,inhibition,2.3%
CO[C@]12CC[C@@]3(C[C@@H]1[C@H](O)c1ccccc1)[C@H]1Cc4ccc(O)c5c4[C@@]3(CCN1CC1CC1)[C@H]2O5,"Mu-type opioid receptor (OPRM1, Homo sapiens, UniProt P35372)","binding, radioligand displacement",CHO,together with: [3H]DAMGO,,Ki,0.0013 ± 0.00039 µM
O=C(Nc1ccccc1)c1cc([N+](=O)[O-])ccc1Cl,Salmonella typhimurium,Ames plate incorporation,TA100,"50 µg/plate, without metabolic activation",,revertants,969 ± 22 revertants/plate
CCN1CCN(Cc2ccc(NC(=O)c3ccc(C)c(/C=C/c4cnc5[nH]ccc5c4OC)c3)cc2C(F)(F)F)CC1,TFG-ALK fusion,"kinase-CDC37 interaction, cell-based kinome screen",,5 µM,reference: vehicle,log2 fold change,-0.039
CCc1nc(N)nc(N)c1C#CCc1cc(OC)cc(-c2ccc(C(=O)O)cc2)c1,Staphylococcus aureus,,"MRSA clinical isolate UCH 115, dfrA, SSTI",,,MIC,> 20 µg/mL
CSc1nc(Cl)cc(Sc2nnc(-c3cc(C(F)(F)F)cc(C(F)(F)F)c3)[nH]2)n1,Klebsiella pneumoniae,,BARB 105,together with: polymyxin B nonapeptide 25 µg/mL,,MIC,47.1 µg/mL
C[C@H](Cc1ccc(O)c(O)c1)[C@@H](C)Cc1ccc(O)c(O)c1,,,human skin,"1% w/v solution, 24 h",,total amount delivered,6.65 ± 0.49 µg

# Excerpt of the above:
Structure (SMILES),target or system,assay,test system,conditions,scale,endpoint,value
CC[C@@](O)(c1ccccc1)[C@H]1C[C@@]23CC[C@]1(OC)[C@@H]1Oc4c(O)ccc5c4[C@@]12CCN(CC1CC1)[C@@H]3C5,"Kappa-type opioid receptor (OPRK1, Homo sapiens, UniProt P41145)","binding, radioligand displacement",CHO,together with: [3H]U-69593,,Ki,0.00036 ± 4e-05 µM
Cc1ccc(-c2csc(N(CC3OC(n4c[n+](Cc5ccccc5)c5c(=O)[nH]c(NC(=O)c6ccccc6)nc54)C4OC(C)(C)OC34)P(=O)([O-])O)n2)cc1 (stereo not shown),Caco-2,"cell growth, SRB",,,,IC50,> 100 µM
CO[C@]12CC[C@@]3(C[C@@H]1[C@H](O)c1ccccc1)[C@H]1Cc4ccc(O)c5c4[C@@]3(CCN1CC1CC1)[C@H]2O5,"Mu-type opioid receptor (OPRM1, Homo sapiens, UniProt P35372)","binding, radioligand displacement",CHO,together with: [3H]DAMGO,,Ki,0.0013 ± 0.00039 µM
O=C(Cn1c(-c2ccccn2)nc2ccccc21)Nc1ccc2ccccc2c1,"Inosine-5'-monophosphate dehydrogenase (Streptococcus pyogenes, UniProt P0C0H6)","enzyme activity, inhibitor",,corrected for open conformation,,IC50,0.0007 µM
